Assay results from different studies.
Protocols differ between the studies behind these lines.

For `C[C@@H]1C(=O)O[C@@H](C)/C=C/C=C\[C@@H](C)[C@@H]2C=C[C@@H]3C[C@@]4(C)O[C@H]4[C@@H](C)[C@H]3[C@@H]2C(=O)C(Cl)(Cl)C1=O`, the MIC was 0.1 µg/mL (Staphylococcus aureus; MRSA clinical isolate; OXA SXT resistant).
The MIC of `C#CCNC(=O)C(C)(C)O/N=C(\C(=O)N[C@@H]1C(=O)N(S(=O)(=O)O)[C@H]1C)c1csc(N)n1` is reported as 8 µg/mL (Enterobacter aerogenes; agar dilution; ATCC 13048 susceptible).
`CC[C@H](C)[C@H](NC(=O)[C@H](CC(N)=O)NC(=O)[C@H](CCC(N)=O)NC(=O)[C@H](CC(C)C)NC(=O)[C@@H](NC(=O)[C@H](Cc1ccccc1)NC(=O)[C@H](Cc1ccc(O)cc1)NC(=O)[C@H](CO)NC(=O)[C@H](CS)NC(=O)[C@H](CC(C)C)NC(=O)[C@H](CCCCN)NC(=O)[C@H](CCCCN)NC(=O)[C@H](CCCNC(=N)N)NC(=O)[C@H](CCCNC(=N)N)NC(=O)[C@H](CS)NC(=O)[C@H](CCCNC(=N)N)NC(=O)[C@H](CCCCN)NC(=O)[C@H](CCCNC(=N)N)NC(=O)[C@H](CCCCN)NC(=O)[C@H](Cc1ccccc1)NC(=O)[C@@H](N)CCCNC(=N)N)[C@@H](C)CC)C(=O)N[C@@H](CC(N)=O)C(=O)N[C@@H](Cc1ccccc1)C(=O)N[C@@H](CCCNC(=N)N)C(=O)N[C@@H](CC(C)C)C(=O)N[C@@H](CCCNC(=N)N)C(=O)N[C@@H](CCCCN)C(=O)NCC(=O)N[C@@H](CCCCN)C(=O)O` has an MIC of 32 µg/mL (Bordetella bronchiseptica; broth microdilution; ATCC 10580; 16 h, 37 °C, cation-adjusted Mueller-Hinton broth).
The MIC of `CCCC(C)Oc1cccc(NC(=O)c2cccnc2)c1` (centres unmarked) is reported as 8 µg/mL (Lodderomyces parapsilosis; microbial growth, broth dilution; ATCC22019).
`CC[C@H](C)[C@H](NC(=O)[C@H](CCC(N)=O)NC(=O)[C@H](Cc1ccccc1)NC(=O)[C@H](CC(N)=O)NC(=O)[C@H](CCCCN)NC(=O)[C@H](CC(C)C)NC(=O)[C@H](CCCNC(=N)N)NC(=O)[C@H](CCCCN)NC(=O)[C@H](CCCCN)NC(=O)[C@@H](NC(=O)[C@H](CO)NC(=O)[C@H](CCCCN)NC(=O)CNC(=O)[C@H](CC(C)C)NC(=O)[C@H](CCCCN)NC(=O)[C@H](CCCCN)NC(=O)[C@H](CC(C)C)NC(=O)[C@H](CCCCN)NC(=O)[C@H](CCCCN)NC(=O)[C@H](CCCNC(=N)N)NC(=O)[C@H](CC(C)C)NC(=O)CNC(=O)[C@@H](N)CCCNC(=N)N)[C@@H](C)CC)C(=O)NCC(=O)N[C@@H](Cc1ccccc1)C(=O)N[C@@H](CO)C(=O)N[C@H](C(=O)N1CCC[C@H]1C(=O)N[C@@H](Cc1ccccc1)C(=O)N[C@@H](C)C(=O)NCC(=O)O)C(C)C` gave an MIC of 1.12 µM (Bordetella bronchiseptica; broth microdilution; ATCC 10580).
`CN[C@H](CC(C)C)C(=O)N[C@H]1C(=O)N[C@@H](CC(N)=O)C(=O)N[C@H]2C(=O)N[C@H]3C(=O)N[C@H](C(=O)N[C@H](C(=O)O)c4cc(O)cc(O)c4-c4cc3ccc4O)[C@H](O)c3ccc(c(Cl)c3)Oc3cc2cc(c3O[C@@H]2O[C@H](CO)[C@@H](O)[C@H](O)[C@H]2O[C@H]2C[C@](C)(N)[C@H](O)[C@H](C)O2)Oc2ccc(cc2Cl)[C@H]1O` gave an MIC of under 1 µM (Listeria monocytogenes; 1.108, glucose peptone yeast broth; 18 to 20 h, 37 °C).
With `C#CCO/N=C(\C(=O)N[C@@H]1C(=O)N(OS(=O)(=O)O)C1(C)C)c1nsc(N)n1` the MIC was 16 µg/mL (Enterobacter aerogenes; agar dilution; ATCC 13048, susceptible).
The MIC of `CC1C=CC=CC(C)C2C=CC3CC(C)(O)C(Cl)C(C)C3C2C(=O)C(Cl)(Cl)C(=O)C(C)C(=O)O1` (centres unmarked) is reported as 0.025 µg/mL (Staphylococcus aureus; MRSA clinical isolate; resistant, OXA, CIP, MXF, ERY, CLI, DAP, VAN).
`Cc1ccc(-c2ccc(C3CCCCC3)cc2)cn1` has a hepatic clearance of 29 mL/min/kg (liver microsome stability; dog liver microsomes; 1 µM).
For `CC1(C)C(NC(=O)C(=NOCC(=O)N2CC3CCCC3C2C(=O)O)c2csc(N)n2)C(=O)N1OS(=O)(=O)O` (centres unmarked), the MIC was 2 µg/mL (Enterobacter aerogenes; agar dilution; ATCC 13048, susceptible).
`CNC(C)C1CCC(N)C(OC2C(N)CC(N)C(OC3OCC(C)(O)C(NC)C3O)C2O)O1` (centres unmarked) gave an MIC of 2 µM (Listeria monocytogenes; 1.108, glucose peptone yeast broth; 18 to 20 h, 37 °C).
`O=C(CC(F)(F)F)Nc1ccc([C@H]2[C@@H](F)[C@@H](F)C[C@@H](F)[C@H]2F)cc1` gave a hepatic clearance of 8 mL/min/kg (liver microsome stability; cynomolgus liver microsomes; 1 µM).
`C=CCO/N=C(\C(=O)N[C@@H]1C(=O)N(OS(=O)(=O)O)C1(C)C)c1nsc(N)n1` has an MIC of 1 µg/mL (Enterobacter aerogenes; agar dilution; ATCC 13048, susceptible).
With `CO[C@H]1/C=C/O[C@@]2(C)Oc3c(C)c(O)c4c(c3C2=O)C2=NC3(CCN(CC(C)C)CC3)NC2=C(NC(=O)/C(C)=C\C=C\[C@H](C)[C@H](O)[C@@H](C)[C@@H](O)[C@@H](C)[C@H](OC(=O)c2cccc(F)c2)[C@@H]1C)C4=O` the MIC was 0.102 µM (Mycobacteroides abscessus subsp. abscessus; K21 clinical isolate; 90% growth inhibition).
